{"data": "Results collected from several papers", "note": "Every numbered part comes from another study and shows a few of its results, in no order."}
{"data": "Sample 1", "target": "Histone acetyltransferase KAT6A, both winged helices, GST fusion (KAT6A, Homo sapiens, UniProt Q92794, residues 1-181)", "technique": "protein binding microarray", "molecule type": "double-stranded DNA, one strand shown", "medium": "in vitro", "concentration": "not given", "notes": "8-mer, flanks averaged, mean of 2 arrays, mostly near background", "reference": "not given", "reading": "higher = stronger binding", "Construct (chain)": "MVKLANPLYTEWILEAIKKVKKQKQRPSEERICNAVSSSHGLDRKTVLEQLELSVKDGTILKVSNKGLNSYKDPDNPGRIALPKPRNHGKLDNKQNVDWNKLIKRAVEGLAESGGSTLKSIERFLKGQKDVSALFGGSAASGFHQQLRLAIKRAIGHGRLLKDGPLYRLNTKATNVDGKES"}
{"Oligonucleotide": "CGTTGCCA", "E-score": 0.0355}
{"Oligonucleotide": "CTACAACA", "E-score": -0.094}
{"Oligonucleotide": "CCCCGACC", "E-score": 0.0261}
{"Oligonucleotide": "GTAAGTAA", "E-score": -0.151}
{"Oligonucleotide": "CCGTGTAA", "E-score": 0.127}
{"Oligonucleotide": "GTGATCAC", "E-score": 0.0257}
{"Oligonucleotide": "CATGCAAG", "E-score": -0.0997}
{"Oligonucleotide": "GATCTCAA", "E-score": 0.0636}
{"Oligonucleotide": "GAGACCCA", "E-score": 0.00464}
{"Oligonucleotide": "AACTACGT", "E-score": -0.0411}
{"Oligonucleotide": "AGCCGCGA", "E-score": 0.303}
{"Oligonucleotide": "CCCTGTAG", "E-score": -0.0334}
{"Oligonucleotide": "GACTATCC", "E-score": -0.05}
{"data": "Sample 2", "target": "RING finger protein unkempt homolog, zinc fingers 1-6, GST-SBP tag (UNK, Homo sapiens, UniProt Q9C0B0, residues 30-357)", "technique": "RNA Bind-n-Seq", "molecule type": "RNA", "medium": "in vitro", "concentration": "not given", "notes": "RNA with constant flanks, human and mouse sites, ends assumed", "reference": "input RNA pool", "reading": "higher = stronger binding", "shared flanks, not repeated": "GGGAGUUCUACAGUCCGACGAUC … CAACAGAGGAUUGAGCAUCA", "UniProt Q9C0B0, sequence (30-357, looked up)": "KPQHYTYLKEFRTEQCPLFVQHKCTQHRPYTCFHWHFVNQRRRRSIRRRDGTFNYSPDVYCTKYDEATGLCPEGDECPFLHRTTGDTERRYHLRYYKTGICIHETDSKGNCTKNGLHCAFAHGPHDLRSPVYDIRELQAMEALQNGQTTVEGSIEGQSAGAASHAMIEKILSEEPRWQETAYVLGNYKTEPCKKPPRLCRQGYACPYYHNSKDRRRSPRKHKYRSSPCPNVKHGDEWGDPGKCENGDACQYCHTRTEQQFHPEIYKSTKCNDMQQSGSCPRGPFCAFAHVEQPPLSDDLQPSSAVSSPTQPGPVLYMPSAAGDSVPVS"}
{"Oligonucleotide": "CUGAACAUUUUGAAGCUUGCUCCUGGUGGGCAUGUGGGACGUUUCUGCAUUUGGACUGAAAGUGCUUUCCGGAAGUUAGAUGAAUUGUACGGCACUUGGCGUAAAGCCGCUUCCCUCAAG", "bound/input enrichment": "1.01 ratio"}
{"Oligonucleotide": "AUAACUACUCCUGCCAUGGCGGUCAGUCAUAUCAUGUUGGAAUCAUAUAAAAAGUAUAUUUUAGUGUCUUUGAUAUUACUUGGCAAAGUACAACAGCUACCAAAAUAUACAUCUCAAAUU", "bound/input enrichment": "0.109 ratio"}
{"Oligonucleotide": "CCGUUCGAUCCUAGAGUUCUCUUUUCUGCUGGUCAUGAUGGAAACGUGAUAGUGUGGGAUCUGGCAAGAGGAGUCAAAAUACGAUCUUAUUUCAAUAUGAUUGAAGGCCAAGGACAUGGC", "bound/input enrichment": "0.191 ratio"}
{"Oligonucleotide": "UGGUAUGGCCUUGGGCAGACUUACGAAAUCCUUAAAAUGCCAUUUUAUUGCCUUUAUUAUUAUAGACGGGCCCACCAGCUUCGUCCCAAUGAUUCUCGCAUGCUGGUUGCCUUAGGAGAA", "bound/input enrichment": "1.05 ratio"}
{"Oligonucleotide": "GGGACAAUUCAUCUCUUUCGAAAACCACAAAGAUCCUUUUUUGGCAAGUUGUUACGGGAAUUUAGACUUGUAGCAGCUGACCGAAGGUCCUGGAAGAUACUGCUCUUUGGUGUAAUAAAC", "bound/input enrichment": "0.185 ratio"}
{"Oligonucleotide": "AAUGCAUGGAUGGAGACAGAAGCUGUGAACUACCAUGACGAAACAGGUGAGAUAAUGGAUAAUCUUAUGCUAGAAGCUGGAGAUGAUGCUGGAAAAGUGAAAUGGGUGGACAUCAAUGAU", "bound/input enrichment": "0.355 ratio"}
{"Oligonucleotide": "GAUGAACCGGCCAUCAUUGUACAUCCAAAUUGGGCUGCAAAAAGUGGCAAGUUUGAUUGUAGCAUCAUGUCUUUGAGUGUCCUAUUGGACUACAGAUUAGAGGAUAAUAAAGAACAUUCA", "bound/input enrichment": "0.255 ratio"}
{"Oligonucleotide": "GCUGGAUAUGGAGACAUUUACCUCAAUGCUGGUCCCAUGUUGUUUAGUGGAGACAAGGACCAUAGAUUUGAAUAUAGCCAUGGUCCUAUUGCAGUCCUGGCAAACAGCAGUGACCCUUCC", "bound/input enrichment": "0.194 ratio"}
{"Oligonucleotide": "AUUCCCAAAUCAGAAGAAAUGGCAUUCCGGGCGAUUUGUGUGUUGGUUGGAGUAUUUAUUUGUUCCAUUUGUGUACGAGGAUCUUCCCAGCCCCAAGCAAGAGUUUAUUUAACAUUUGAU", "bound/input enrichment": "0.384 ratio"}
{"data": "Sample 3", "target": "Interferon regulatory factor 3, full length, phosphomimetic (IRF3, Homo sapiens, UniProt Q14653, residues 1-427, S386D/S396D/S398D/S402D/T404D/S405D)", "technique": "protein-binding microarray", "molecule type": "double-stranded DNA, one strand shown", "medium": "in vitro", "concentration": "2540 nM top", "notes": "60-bp whole probe", "added": "salmon DNA 0.4 mg/ml", "reference": "random background probes", "reading": "higher = stronger binding", "shared flanks, not repeated": "GCCTAGCAC … GTCTTGATTCGCTTGACGCTGCTG", "Target sequence (chain)": "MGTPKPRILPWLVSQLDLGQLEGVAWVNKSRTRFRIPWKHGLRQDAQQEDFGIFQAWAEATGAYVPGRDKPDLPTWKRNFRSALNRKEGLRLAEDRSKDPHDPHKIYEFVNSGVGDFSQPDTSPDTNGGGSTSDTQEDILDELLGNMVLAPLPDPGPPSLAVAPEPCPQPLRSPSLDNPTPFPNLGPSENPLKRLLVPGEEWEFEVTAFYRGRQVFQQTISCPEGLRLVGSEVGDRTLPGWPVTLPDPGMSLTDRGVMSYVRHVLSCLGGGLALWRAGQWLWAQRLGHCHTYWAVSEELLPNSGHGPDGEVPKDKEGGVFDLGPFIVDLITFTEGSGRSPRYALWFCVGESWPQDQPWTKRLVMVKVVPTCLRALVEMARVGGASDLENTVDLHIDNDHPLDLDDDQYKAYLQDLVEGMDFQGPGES"}
{"Oligonucleotide": "GACGGTATCGGGTTTCGTGACGTGCTA", "fitted relative affinity [z-score]": 2.51}
{"Oligonucleotide": "TCCCCGGAGCTGGACAGAAGGTGCTAG", "fitted relative affinity [z-score]": -0.617}
{"Oligonucleotide": "TCATGTGTCTGATTATTACTGTGCTAG", "fitted relative affinity [z-score]": 0.387}
{"Oligonucleotide": "CTGTTTTTGCTTTCCTTCTTGTGCTAG", "fitted relative affinity [z-score]": 6.27}
{"Oligonucleotide": "TCAGCTTCCTAATTCTCACTGTGCTAG", "fitted relative affinity [z-score]": 1.63}
{"Oligonucleotide": "GACGATTCCAGTTTCTAGACGTGCTAG", "fitted relative affinity [z-score]": 2.49}
{"Oligonucleotide": "TTAGGTATCGGGGTTCGGTTAGTGCTA", "fitted relative affinity [z-score]": 0.774}
{"Oligonucleotide": "CTAATTTCCATTTTCTAAATGTGCTAG", "fitted relative affinity [z-score]": 6.38}
{"Oligonucleotide": "GACGGTTGCGACTATCGGGACGTGCTA", "fitted relative affinity [z-score]": 0.139}
{"data": "Single results of other studies"}
{"Substance": "PhoQ, residues 284 288 289 292 302 303 AGCYAI", "target": "PhoP, residues 12 14 15 18 19 AQCLL (Escherichia coli, UniProt P23836)", "test": "Sort-seq, item: YFP reporter", "system": "E. coli", "setting": "PhoQ-PhoP variant library, added: 10 µM Mg2+", "scale": "reference: high Mg2+ state, higher = stronger signaling", "measurement": "fold induction", "value": 3.21}
{"note": "Some of these lines once more (sample 3):"}
{"Oligonucleotide": "TTAGGTATCGGGGTTCGGTTAGTGCTA", "fitted relative affinity [z-score]": 0.774}
{"Oligonucleotide": "GACGGTATCGGGTTTCGTGACGTGCTA", "fitted relative affinity [z-score]": 2.51}
{"Oligonucleotide": "GACGATTCCAGTTTCTAGACGTGCTAG", "fitted relative affinity [z-score]": 2.49}
